Experimental data collected from several papers.
Compare with care: the assays were run in different laboratories. Several values in a cell are separate wells, animals, samples, runs or records. ± gives the spread as reported.
CYP3A4: Cytochrome P450 3A4 (CYP3A4, Homo sapiens, UniProt P08684)
Chain of UniProt P08684 (whole entry, looked up): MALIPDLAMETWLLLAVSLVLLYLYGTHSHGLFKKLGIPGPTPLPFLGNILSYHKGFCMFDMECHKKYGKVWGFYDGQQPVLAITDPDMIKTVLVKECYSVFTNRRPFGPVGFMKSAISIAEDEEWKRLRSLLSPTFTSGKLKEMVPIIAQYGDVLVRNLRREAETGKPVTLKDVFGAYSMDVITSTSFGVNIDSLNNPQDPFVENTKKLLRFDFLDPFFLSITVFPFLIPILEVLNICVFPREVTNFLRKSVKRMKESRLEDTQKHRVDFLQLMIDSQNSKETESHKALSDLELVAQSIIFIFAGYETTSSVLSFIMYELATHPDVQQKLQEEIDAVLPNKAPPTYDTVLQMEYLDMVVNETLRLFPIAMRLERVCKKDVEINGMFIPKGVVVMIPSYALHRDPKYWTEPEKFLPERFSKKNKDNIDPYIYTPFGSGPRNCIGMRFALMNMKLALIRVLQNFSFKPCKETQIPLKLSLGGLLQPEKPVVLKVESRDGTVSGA
Chain of UniProt O70423 (whole entry, looked up): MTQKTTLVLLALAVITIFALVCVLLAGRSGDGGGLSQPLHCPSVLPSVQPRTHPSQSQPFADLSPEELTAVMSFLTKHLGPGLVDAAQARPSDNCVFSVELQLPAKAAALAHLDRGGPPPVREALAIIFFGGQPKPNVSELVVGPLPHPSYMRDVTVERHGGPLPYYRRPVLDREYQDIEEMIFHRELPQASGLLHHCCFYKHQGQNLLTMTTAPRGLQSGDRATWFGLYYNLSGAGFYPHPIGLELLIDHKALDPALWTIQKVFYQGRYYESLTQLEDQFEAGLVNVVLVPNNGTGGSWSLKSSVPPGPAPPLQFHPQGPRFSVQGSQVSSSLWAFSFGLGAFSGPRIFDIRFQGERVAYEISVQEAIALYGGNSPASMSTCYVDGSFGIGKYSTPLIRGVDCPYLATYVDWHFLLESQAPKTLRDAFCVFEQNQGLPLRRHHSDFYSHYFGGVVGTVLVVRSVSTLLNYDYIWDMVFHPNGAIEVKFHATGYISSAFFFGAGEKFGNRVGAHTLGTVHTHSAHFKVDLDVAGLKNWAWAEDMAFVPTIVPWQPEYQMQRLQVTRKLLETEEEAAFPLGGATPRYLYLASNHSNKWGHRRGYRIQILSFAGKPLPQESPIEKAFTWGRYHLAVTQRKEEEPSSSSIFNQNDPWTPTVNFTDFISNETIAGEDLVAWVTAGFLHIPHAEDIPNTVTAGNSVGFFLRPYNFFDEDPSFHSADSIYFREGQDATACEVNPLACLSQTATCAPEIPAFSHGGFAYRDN

The amount transported of `O=C(CCc1ccc(O)cc1)c1c(O)cc(O)cc1O[C@@H]1O[C@H](CO)[C@@H](O)[C@H](O)[C@H]1O` is reported as 4.27 ± 2.5% (Caco-2 monolayers; basolateral to apical transport; 100 µg/mL, 2 h).
For `NCc1cc2c(cc1F)C(=O)N(C1CCC(=O)NC1=O)C2` (stereo not shown), the concentration was 700 nM (Amine oxidase [copper-containing] 3 (Mus musculus, UniProt O70423); substrate, LC-MS/MS; recombinant mouse enzyme; 10 µM, 20 h, pH 7.4).
Under “structural aberrations per 100 cells”, `COc1cccc(-c2n[nH]c(SCc3ccccn3)n2)c1OC` is recorded as 1.5 (primary human lymphocytes; 0.25 mg/mL, 20 h).
`Cc1cc(Nc2ncnc3ccc(NC4=NC(C)(C)CO4)cc23)ccc1Oc1ccn2ncnc2c1`: “CL/F, geometric mean” 89.5 L/h (CYP3A4; human, plasma; oral, 300 mg, day 1, single dose alone).
`O=C(O)[C@H]1O[C@@H](Oc2cc3oc(-c4ccccc4)cc(=O)c3c(O)c2O)[C@H](O)[C@@H](O)[C@@H]1O` has an efflux ratio of 0.29 (Caco-2 monolayers; 100 µg/mL, 2 h; baseline: Papp(BL-AP) over Papp(AP-BL)).
With `O=C1C(Br)=C(Br)C(=O)c2ccccc21` the germination inhibition was 94.1% (Eruca sativa; seeds; 200 µg/mL, 168 h, 10% DMSO).
With `O=C(C[C@@H](C(F)F)n1ccc(F)n1)N1CCC(O)(Cn2cnc3c(cnn3-c3ccc(F)cc3)c2=O)CC1` the viability was 22.3% and 26.3% (CAPAN-1 parental; SRB; 20 µM, 5 days).
`CC[C@H]1[C@@H](O)[C@@H]2[C@H](CC[C@]3(C)[C@@H]([C@H](C)CCNC(=O)NS(=O)(=O)c4ccc(C(C)(C)C)cc4)CC[C@@H]23)[C@@]2(C)CC[C@@H](O)C[C@@H]12` has a Tmax median of 4 h (CYP3A4; human, plasma; dose not given, compound alone).
For `Cc1cc(Nc2ccc(S(F)(F)(F)(F)F)cc2)n2nc(C(C)(F)F)nc2n1`, “patients with any adverse event” read 85.7% (Plasmodium vivax; human Plasmodium vivax malaria patients; oral, 800 mg).
`O=c1cc(-c2ccc(O)c(O)c2)oc2cc(O)cc(O)c12` gave an efflux ratio of 0.59 (Caco-2 monolayers; 100 µg/mL, 2 h; baseline: Papp(BL-AP) over Papp(AP-BL)).
`CC[C@H](CO)N(CCN(N=O)[C@H](CC)CO)N=O` — result for “revertant colonies per plate”: 154 ± 4 (Salmonella typhimurium; mutagenicity, Ames plate incorporation; TA100; 50 µg/plate, without S9, methanol).
The efflux ratio of `C[C@@H]1O[C@@H](OC[C@H]2O[C@@H](Oc3c(-c4ccc(OCCO)c(OCCO)c4)oc4cc(OCCO)cc(O)c4c3=O)[C@H](O)[C@@H](O)[C@@H]2O)[C@H](O)[C@H](O)[C@H]1O` is reported as 0.43 ± 0.1 (Caco-2 monolayers; 100 µg/mL, 2 h; baseline: Papp(BL-AP) over Papp(AP-BL)).
With `COc1cc(/C=C/C=C2\SC(=S)NC2=O)cc(OC)c1O` the viability was 1.05 and 1.01 (HEK-293T; CellTiter-Glo; 5 µM, 24 h, unit not given; baseline: untreated).
